Published values of several laboratories.
Parts stem from different laboratories: compare values within a part only. Positions count from the first letter of the parent shown.

Block 1
Target: Histone acetyltransferase KAT6A, both winged helices, GST fusion (KAT6A, Homo sapiens, UniProt Q92794, residues 1-181)
Technique: protein binding microarray
Form: double-stranded DNA, one strand shown
Matrix: in vitro
Tested at: not given
Notes: 8-mer, flanks averaged, mean of 2 arrays, mostly near background
Relative to: not given
Direction: higher = stronger binding
Construct (chain): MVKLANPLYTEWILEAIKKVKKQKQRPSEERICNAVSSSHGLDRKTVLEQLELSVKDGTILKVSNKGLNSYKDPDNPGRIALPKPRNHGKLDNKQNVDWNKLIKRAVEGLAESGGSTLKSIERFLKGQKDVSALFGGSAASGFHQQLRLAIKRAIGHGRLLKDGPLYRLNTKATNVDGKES
Strand	E-score
AGGGTAGC	0.0161
TAATTCTA	-0.116
AATAATAC	-0.0699
AGGGACGG	0.138
AGCATTTA	-0.108
CTAGGTGA	-0.177
AAGTTAAT	-0.164

Block 2
Target: Sal-like protein 4, full length isoform B (SALL4, Homo sapiens, UniProt Q9UJQ4-2, residues 1-616)
Technique: universal PBM
Form: double-stranded DNA, one strand shown
Matrix: in vitro
Tested at: not given
Notes: 8-mer, flanks averaged, mean of replicates
Direction: higher = stronger binding
Residues (chain): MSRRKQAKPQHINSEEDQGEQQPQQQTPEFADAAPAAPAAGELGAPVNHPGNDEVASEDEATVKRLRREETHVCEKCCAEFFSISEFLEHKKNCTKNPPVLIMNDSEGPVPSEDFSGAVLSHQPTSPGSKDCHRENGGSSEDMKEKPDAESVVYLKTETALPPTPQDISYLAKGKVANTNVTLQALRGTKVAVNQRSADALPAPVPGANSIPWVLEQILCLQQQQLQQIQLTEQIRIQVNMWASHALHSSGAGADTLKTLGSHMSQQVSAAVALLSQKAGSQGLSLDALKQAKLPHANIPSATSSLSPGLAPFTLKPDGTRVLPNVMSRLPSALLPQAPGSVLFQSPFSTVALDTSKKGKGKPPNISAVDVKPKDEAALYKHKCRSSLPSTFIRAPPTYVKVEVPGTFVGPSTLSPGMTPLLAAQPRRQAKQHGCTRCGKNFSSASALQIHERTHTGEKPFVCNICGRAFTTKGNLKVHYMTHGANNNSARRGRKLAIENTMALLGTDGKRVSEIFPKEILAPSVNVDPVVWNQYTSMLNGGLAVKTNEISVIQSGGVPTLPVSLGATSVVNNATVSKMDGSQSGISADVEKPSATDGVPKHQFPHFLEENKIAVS
Strand	E-score
TCCACGCA	-0.0584
AGCATGCG	-0.0344
ACCGTCGA	-0.226
CTACGTCA	-0.144
CACACAGG	0.0026

Mixed results
CREB3L4: CREB3L4, bZIP domain (human)
P1: JUN, bZIP domain (human); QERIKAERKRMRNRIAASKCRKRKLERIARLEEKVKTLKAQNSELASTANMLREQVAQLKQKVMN; partner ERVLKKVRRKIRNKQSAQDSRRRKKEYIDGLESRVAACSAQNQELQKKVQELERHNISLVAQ
Substance	target	test	test system	setting	how to read	quantity	result
P1 A40T	CREB3L4	DHFR protein complementation	yeast	single substitutions, most at no-binding floor	relative to: wild-type JUN-FOS pair, higher = stronger binding	binding fitness	-1.38 natural log
PhoQ, residues 284 288 289 292 302 303 SLSVQF	PhoP, residues 12 14 15 18 19 NIMAP (Escherichia coli, UniProt P23836)	Sort-seq, item: YFP reporter	E. coli	PhoQ-PhoP variant library, with: 10 µM Mg2+	relative to: high Mg2+ state, higher = stronger signaling	fold induction	0.316
P1 L45V	CREB3L4	DHFR protein complementation	yeast	single substitutions, most at no-binding floor	relative to: wild-type JUN-FOS pair, higher = stronger binding	binding fitness	-1.44 natural log

Excerpt of the above (block 2):
Strand	E-score
TCCACGCA	-0.0584
